Measurements from different studies.
Every numbered part comes from another study and shows a few of its results, in no order.

Sample 1
Target: Fragile X messenger ribonucleoprotein 1, C-terminal low-complexity region (Fmr1, Mus musculus, UniProt P35922)
Technique: RNA Bind-n-Seq
Form: RNA
Matrix: in vitro
Concentration: 200 nM
Notes: whole 134-nt RNA, ends assumed
Added: 150 mM KCl
Reference: input library
Direction: higher = stronger binding
All sequences stand within: GGGAGUUCUACAGUCCGACGAUC … UGGAAUUCUCGGGUGUCAAGG
Strand | log2 enrichment
CACAGACAACACGCACCCACACGGACACAGAGGGAAGGGGUUGGGAUGGGGACAGGGUGCACAGCAGGGCGGGGUAGGACCCCAGCCCCU | 1.25
ACCAUGCAGGUGGGCAUCUUUGGGAAGUGGGGCAAGGGGGGGAUAGGGAGGGGGGUAACACUUUGGGAACGGGUGGUCCCAGGUCGUUUC | 0.68
AGUCCUGUGCUACACAUCGUAUGUACCGAAUCGGGUGGGUUUUUUUGGGUUUUUGGGAAAGUAUUAUGUUACGCCGUUCGGAUCUGCACU | 0.438
CAAGUCCUGUGCUACACAUCGUAUGUACCGAAUCGGGGUGGGGUUUGGGGAGGGGAAAGUAUUAUGUUACGCCGUUCGGAUCUGCACUUC | 1.32
UGGGAGGUGGAUUUUGUUUAUUUUUUUAGCUCAUUUCCAGGGGUGGGAAUUUUUUUUUAAUAUGUGUCAUAAAUAAAGUUGUUUUUGAAA | 0.267
UGUGCUACACAUCGUAUGUACCGAAUCGGGGCCCCCCCGGGCCCCCCCGGGGCCCCCCCGGGAAAGUAUUAUGUUACGCCGUUCGGAUCU | -1.54
GUCCUGUGCUACACAUCGUAUGUACCGAAUCGGAAAAAAAGGAAAAAGGAAAAAAAGGAAAGUAUUAUGUUACGCCGUUCGGAUCUGCAC | -0.718
CAAGUCCUGUGCUACACAUCGUAUGUACCGAAUCGGGAGGGUUUUUUUGGGUGGGAAAGUAUUAUGUUACGCCGUUCGGAUCUGCACUUC | 0.703
CAAGUCCUGUGCUACACAUCGUAUGUACCGAAUCGGCCCGGGGCCCGGCCCGGGGAAAGUAUUAUGUUACGCCGUUCGGAUCUGCACUUC | -0.389
CCUCAAGUCCUGUGCUACACAUCGUAUGUACCGAAUCGGUGGUUUUUGGUGGAAAGUAUUAUGUUACGCCGUUCGGAUCUGCACUUCCAG | 0.19

Sample 2
Target: RING finger protein unkempt homolog, zinc fingers 1-6, SBP tag (UNK, Homo sapiens, UniProt Q9C0B0, residues 30-357)
Chain of UniProt Q9C0B0 (30-357, looked up): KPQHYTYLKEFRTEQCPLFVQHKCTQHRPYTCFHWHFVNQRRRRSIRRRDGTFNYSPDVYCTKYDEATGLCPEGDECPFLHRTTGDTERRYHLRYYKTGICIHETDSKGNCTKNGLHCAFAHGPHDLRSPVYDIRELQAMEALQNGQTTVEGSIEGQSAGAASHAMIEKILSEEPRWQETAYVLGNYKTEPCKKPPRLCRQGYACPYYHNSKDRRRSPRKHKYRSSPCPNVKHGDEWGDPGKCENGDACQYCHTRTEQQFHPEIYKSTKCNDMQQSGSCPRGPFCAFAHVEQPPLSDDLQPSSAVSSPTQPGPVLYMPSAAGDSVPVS
Technique: RNA Bind-n-Seq
Form: RNA
Matrix: in vitro
Concentration: 100 nM
Notes: RNA with constant flanks, vertebrate orthologous sites, ends assumed
Reference: input RNA pool
Direction: higher = stronger binding
All sequences stand within: GGGAGUUCUACAGUCCGACGAUC … CAACAGAGGAUUGAGCAUCA
Strand | bound/input enrichment [ratio]
CAUGUAGUUUGUUUUUAAUUUCAAGCAAAUCUUAUUGUACUUGAAUGUGCCCUGUUUUGUUAGCACACCUAGACUUGCUGUAAACUGUACUCAUGUCCCAGUAUGUACGUUCUUUCUAUG | 1.2
CAUCUCUCAUUUUAUAUGUCCAAAAAUGGCUUUGAAUUUUAAGCAGUUACUAGUUUUAAUUAGCUCUGCCCUCAUAAAGUGUUAUUAUAAUUCACCGUAACCAGUUAUCUGUCUGAAUUA | 0.821
UCCUCAACUUGUUCUAGCUUGUGAUCCUUCAAAGUUGGGUCAGGCGUUAGUGCCAGGUACUAGAAAAUUUCAUUUCUCUAUUGCCACUGAUCAGAGAGACAGAUGUUAAAAACAGGAACA | 0.301
CCAAAAUUUUAGCCAAGAAUCUGAAGGCAGAAAUACAGGACCAUGGUUAUCUUCCUCACUUAGAAAUAGAUGCACACCUUUGUUCUCUAGAAGGAGGCGAGAGGGACGAGAUGAAUCUUC | 1.13
UUUAAAGUCAUUUUUUCAUGUUUCCUGUAAAUAAUGGAUAAUCAUUUUUAUUUUAUUUUUAAGUGCUGUUUUAACAAUGUGGAUAGACCAUAAAUGUACUUGCUGAAUUCAUUCAUUUUU | 0.424
UUCAGGCACAACUGACUGGUUCACAACAUCCCUUACAUAGUUAUCUGUCAAGUGCAAGUAUUGGUAAUUUUCAGGAAACAUCUAGACAGUCAUCUUUAUCCUGUAGCUCAAUUCGAGAUU | 0.738
ACUGUUGUUAAGCACUGUGUUCCAGACUGUGUCUGACUUAGUGUAACCUAGGAGAUUUUAUAGUUUUAUUUUAAUGAACUCCUGAUUGACGCAGAGCAGUGGGAGAAUGGUCCCUUUUAC | 2.46
GUUGUGAUCCUUUUAACAUACACAAAAAACUUGCCAAGAAAAAUUUGCAUGCGAUUGACUUAGAUGAUGCCACUUUCCUAAGUGCCAAGUUUGGAAGACAGCUUGUACCUGGUUGGAAGC | 0.535
CCGAGGCUUUGUAUUUGGCUGCACUUGCAUAAGCUGCUACAAAUAGUUUAAAGAAUUUCAUAGCCUGUAUCUAUCAUUUAGAUGCAUGGUCAAUGGGCUUUGCACACAAUGGGCUUGGAG | 0.638
UAUUCAUUUGAUUGAAUUUAUUUAGGAAAGAAAUUAUUACUGUUUAUGUUUUCUAGCUUAUCAUACUUUUCAUCCGUUUUGCAAUUAAUAAUUUCAUUUGACUUCUUAAUAUAUCAGAGC | 0.483
UUGGGACCAACUCUCCAAAUAGGAAUAGUAAUAAAAAAAAUAAGCAAAAUGAUAUUUGUAUAGAAAAAACAGAAGUUAAAUCAUGUAAAGUAAAUGCUGCCAGUGUUCCAGGCCCUAAAG | 3.26

Sample 3
Target: RNA binding protein fox-1 homolog 2, RRM domain, GST-SBP tag (RBFOX2, Homo sapiens, UniProt O43251-10, residues 100-194)
Technique: RNA Bind-n-Seq
Form: RNA
Matrix: in vitro
Concentration: 365 nM
Notes: natural RNA segment, single round, ends assumed
Reference: no-protein control
Direction: higher = stronger binding
All sequences stand within: GGGAGUUCUACAGUCCGACGAUC … UGGAAUUCUCGGGUGCCAA
Target sequence (chain): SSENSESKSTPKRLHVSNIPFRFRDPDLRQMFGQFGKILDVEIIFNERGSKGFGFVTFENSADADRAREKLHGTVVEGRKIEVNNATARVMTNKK
Strand | RBNS enrichment (R)
UUUUGCACAAAUGACUCUUUUAUAUUUAAUUCGAUUUCAUUGCCUCCCUUCUUAAAGCCAACAGGCUCAGUUUACAAACCUGUGAGCUACUGUUGGCUGCUGCCCUCCUU | 0.872
UUUAAGUCCGUUUAGAGAGCAAACCAUAUUGUGCCUCUUCAUCUUGACCCAGGCUCUUAUAGAUAGGUCCUAAACAUUGCUGUUCACUAGAUUAUCUUAACAAAUAAUAC | 0.334
AAGGUUUCUUAUGCCCAAGCUUGAAAAAUGAUUUCCCAGUAGACAAGAGGCGGCUACCUAUCCUACAGUUACGGUAUUUAUUUACAUAAGAAGAUCUUACAGGAGUUCUU | 0.651
GCCAACAAAGCCACAUGGCUGUCCUAGUGAGCUUCCUUUCUUACCUGUCUUGAGCUGGGCGUCUCUUUAAUUACUGCCUCUGCCCCGGACCCUUCUCUCUAGACUUGGGA | 0.753
CUCGGGAAGGGGGAAAAAGUUUAAAAUGGGGGAAAAAAAGCCAUCUUUUUAAACAAAAAUUAUUUUGCCUACAGAAAGGUUGUAGUUUUGAGCACAUGUUAAUUUUUUUC | 0.548
UGUUUUCAAAGGAAUGAGGUGUUUAGGUGGCUGGAAAAGCAUUUGUAGGAAGUUAGAUUUGAAUAUAGACAAGGUGGGUUAUUCACGUUGAGAAUGUUAUUUGAAGAAUG | 8.85
CCAGAAGCAGGUAAAUCUGCCUAUGUCCAGAGCCUUGCUUGCUGCUUGAGUCAUGCCUUACCUGCUAUAAGACAGAGUUUCCGCAUAGGUCAGUUCUAUGUGGUGUGGCA | 1.16
CUCAUGUGGCUGGAAGAUCCUGCGGGUGGGGCUUGGGGCUCACACACCUGUAGCACUUACUGGUAGGACCAAGCAUCUUGGGGGGGUGGCCGCUGAGUGGCAGGGGACAG | 0.446
UGACUAGUAAGGUGUUGUAAGUGAUAAGAUCAAUAUCCCUAUGGCUGCUUCCUUGAUCACAGUUUCAAGAUGUGUUCUUGCUCUCAUCCUUCAUCAUUGACACUGACCCU | 0.352
CCAUCAGUCAUCUAACAACAAAGAUACAUUAUUCACUCAUUGUCACCUCUGAGGCUUCUAUCAUAACAGAAUACUGUGUGUGUAAAGGAAUGAGACUGCUUUUAAAGCAA | 0.582
CCUGGAACAGAAAUUGUUUAUAGAGACUACACUAAUUAUUUUAACUGUAUACAUCUGUUUAAUUUGAACACACUACAUCGUAGGGUGACUGAUUUUUGAAGUAUACCACA | 0.363
UGGCAGCUGGUUCUGGUGGCACUGAGAUGAGUGCCACCAGAGGCUCACACUCACUCUCUGUUGAGCUUCUUCCCAGGGAAGGGGAUUCUGGGACAGGGGGCUGCCACUAA | 0.417

Sample 4
Target: Sal-like protein 4, full length isoform B (SALL4, Homo sapiens, UniProt Q9UJQ4-2, residues 1-616)
Technique: universal PBM
Form: double-stranded DNA, one strand shown
Matrix: in vitro
Concentration: not given
Notes: 8-mer, flanks averaged, mean of replicates
Direction: higher = stronger binding
Residues (chain): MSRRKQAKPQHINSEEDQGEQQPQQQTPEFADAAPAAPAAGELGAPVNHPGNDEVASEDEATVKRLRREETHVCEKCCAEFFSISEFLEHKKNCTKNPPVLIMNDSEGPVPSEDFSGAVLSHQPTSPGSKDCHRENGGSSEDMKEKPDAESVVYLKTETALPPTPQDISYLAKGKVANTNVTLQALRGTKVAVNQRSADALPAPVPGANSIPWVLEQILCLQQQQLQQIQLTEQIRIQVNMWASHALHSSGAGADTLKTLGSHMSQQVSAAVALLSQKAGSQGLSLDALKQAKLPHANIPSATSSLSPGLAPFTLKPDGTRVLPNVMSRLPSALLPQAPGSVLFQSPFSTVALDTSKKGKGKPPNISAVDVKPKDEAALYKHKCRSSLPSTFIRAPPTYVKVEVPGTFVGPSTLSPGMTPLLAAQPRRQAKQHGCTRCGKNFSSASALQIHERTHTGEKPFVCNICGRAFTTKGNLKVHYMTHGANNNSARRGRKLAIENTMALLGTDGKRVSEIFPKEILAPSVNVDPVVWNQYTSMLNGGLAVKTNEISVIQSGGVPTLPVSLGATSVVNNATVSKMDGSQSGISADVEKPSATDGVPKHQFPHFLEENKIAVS
Strand | E-score
ATAGTCGG | -0.168
AGTGAGCG | -0.109
ATCATTTG | 0.213
AACAGGAG | -0.0877
AAGTAACC | 0.0609
CATCCAGG | -0.0873
ACTCCCGG | -0.213
AATCAGAG | 0.0479
GCGCCTAA | -0.0846
AACACCTC | -0.0373
CAAGCTTG | -0.00072
GTAGTTGA | 0.0418
CACCACGC | -0.182
AAGTTATC | 0.139
AGCCCCGC | -0.248
AAAGCGCA | -0.0713
CCCTAGGG | -0.252
GAGTATCA | 0.0655
CCATGGGC | -0.392
ATCTCCAC | -0.0651
CGCTCCAC | -0.222
GCATAGGA | -0.00083
CAAAGCAC | 0.0153
AGTTAATA | 0.345
ATGCACAT | 0.175

A few entries again (sample 4):
Strand | E-score
AGTTAATA | 0.345
AACAGGAG | -0.0877
AATCAGAG | 0.0479
AAAGCGCA | -0.0713
ATAGTCGG | -0.168
AACACCTC | -0.0373
ACTCCCGG | -0.213
AAGTTATC | 0.139
AGCCCCGC | -0.248
